Experimental data gathered from unrelated publications.
Protocols differ between the studies behind these lines. Numbers after ± are the reported error.

CCCC1(CN2c3ccccc3Sc3ccccc32)CCN(CC)C1 (stereo not shown)  IC50 (Vero 76; cell growth or viability, neutral red): 13.7 µM
CC(C)C[C@H](NC(=O)[C@H](CCCCN)NC(=O)[C@H](CC(C)C)NC(=O)[C@H](CC(C)C)NC(=O)[C@H](CCCCN)NC(=O)[C@H](CCCCN)NC(=O)[C@H](CC(C)C)NC(=O)[C@H](CC(C)C)NC(=O)[C@H](CCCCN)NC(=O)[C@H](CC(C)C)NC(=O)[C@H](CC(C)C)NC(=O)[C@H](CCCCN)NC(=O)[C@H](CCCCN)NC(=O)[C@H](CC(C)C)NC(=O)[C@@H](N)CSSC[C@H](N)C(=O)N[C@@H](CC(C)C)C(=O)N[C@@H](Cc1c[nH]cn1)C(=O)N[C@@H](CCC(=O)O)C(=O)N[C@@H](CC(C)C)C(=O)N[C@@H](CC(C)C)C(=O)N[C@@H](CCC(=O)O)C(=O)N[C@@H](Cc1c[nH]cn1)C(=O)N[C@@H](CC(C)C)C(=O)N[C@@H](Cc1c[nH]cn1)C(=O)N[C@@H](CCC(=O)O)C(=O)N[C@@H](CC(C)C)C(=O)N[C@@H](CC(C)C)C(=O)N[C@@H](CCC(=O)O)C(=O)N[C@@H](Cc1c[nH]cn1)C(N)=O)C(N)=O  IC50 (4T1; cell growth or viability, MTT; pH 7.4): > 100 µM
CCc1c2c(nc3ccc(O)cc13)-c1cc3c(c(=O)n1C2)COC(=O)[C@@]3(CC)OC(=O)CCC(=O)O  IC50 (CT26; cell growth or viability, MTT; 48 h): 0.376 µM
CCOC(=O)[C@H]1Cc2c(cc([N+](=O)[O-])cc2[N+](=O)[O-])[C@H](O)[C@]12C(=O)Nc1ccccc12  IC50 (U-251; cell growth or viability, MTT; 24 h): > 50 µM
Cc1ccc(C(C)C)cc1.Cn1ccnc1CNCCNc1ccnc2cc(Cl)ccc12.[Cl-].[Cl][Ru+]  IC50 (CHO; cytotoxicity, MTT): > 160 µM
COc1cc(C=CC(=O)CC(=O)C=Cc2ccc(OC(=O)CCC(=O)OC3OC4OC5(C)CCC6C(C)CCC(C3C)C46OO5)c(OC)c2)ccc1OC(=O)CCC(=O)OC1OC2OC3(C)CCC4C(C)CCC(C1C)C24OO3 (stereo not shown)  IC50 (SK-MEL3; cell viability, MTT; 24 h, added: deferoxamine 20 µM, 1 h before): 3.8 ± 0.8 µM
CCC(C)C1OC(=O)C(NC(=O)c2cccc(NC=O)c2O)C(C)OC(=O)C(C(C)CC)OC(=O)C(C)(C)C(=O)C(Cc2ccccc2)OC1=O (stereo not shown)  IC50 (SGC-7901; cell growth or viability, CCK-8; 72 h): 0.0015 µM
O=C(O)c1ccc([PH]([Au][Cl])(c2ccccc2)c2ccccc2)cc1  IC50 (T24; cell growth or viability, resazurin; 72 h): 89.9 µM
C[C@H]1C(OCCCCCCCCCC[P+](c2ccccc2)(c2ccccc2)c2ccccc2)O[C@@H]2O[C@@]3(C)CCC4[C@H](C)CCC1[C@]42OO3 (stereo partly shown)  IC50 (T24; cell growth or viability, MTT; 72 h): 0.107 µM
COC(=O)CC[C@@H](NC(=O)[C@@H](Cc1ccc(OP(=O)(O)O)cc1)NC(=O)[C@@H](Cc1ccccc1)NC(=O)[C@@H](Cc1ccccc1)NC(=O)Cc1ccc2ccccc2c1)C(=O)OC  IC50 (OVCAR-4; cell growth or viability): > 200 µM
C[C@H]1[C@H](OC(=O)CCC(=O)OCCc2ccc(OC(=O)CCC(=O)O[C@@H]3O[C@@H]4O[C@@]5(C)CC[C@H]6[C@H](C)CC[C@@H]([C@H]3C)[C@@]46OO5)cc2)O[C@@H]2O[C@@]3(C)CC[C@H]4[C@H](C)CC[C@@H]1[C@@]24OO3  IC50 (SK-MEL3; cell growth or viability, MTT; 24 h): 32.8 µM
CC(=O)NC(Cc1ccc(Br)c(Cl)c1)C(=O)N[C@@H](C)C(=O)N1CCC[C@H]1C(=O)N1CCC[C@H]1C(=O)N[C@@H](CCC(=O)O)C(=O)N[C@@H](Cc1c[nH]cn1)C(=O)N[C@@H](CO)C(=O)N[C@H](C(=O)N[C@@H](C)C(N)=O)[C@@H](C)OP(=O)(O)O (stereo partly shown)  IC50 (U-266; cell growth or viability, MTT; 72 h): 0.09 µM
C[C@H]1C(OCCCCC[P+](c2ccccc2)(c2ccccc2)c2ccccc2)O[C@@H]2O[C@@]3(C)CCC4[C@H](C)CCC1[C@]42OO3 (stereo partly shown)  IC50 (T24; cell growth or viability, MTT; 72 h): 0.348 µM
Cc1cc(C)c(-n2ccn(-c3c(C)cc(C)cc3C)c2=[Se])c(C)c1.[Cl][Ag]  IC50 (H157 lung carcinoma cells; cell viability, MTT; 72 h): 2 ± 0.7 µM
C[C@@H](O)[C@H](NC(=O)[C@H](CCCNC(=N)N)NC(=O)[C@H](CCCNC(=N)N)NC(=O)[C@H](CCCNC(=N)N)NC(=O)[C@@H]1CCCN1C(=O)[C@@H](N)CO)C(=O)N1CCC[C@H]1C(=O)N[C@@H](CO)C(=O)N1CCC[C@H]1C(=O)N[C@@H](CCCNC(=N)N)C(=O)N[C@@H](CCCNC(=N)N)C(=O)N[C@@H](CCCNC(=N)N)C(=O)N[C@@H](CCCNC(=N)N)C(=O)N[C@@H](CO)C(=O)N[C@@H](CCC(N)=O)C(=O)N[C@@H](CO)C(=O)N1CCC[C@H]1C(=O)N[C@@H](CCCNC(=N)N)C(=O)N[C@@H](CCCNC(=N)N)C(=O)N[C@@H](CCCNC(=N)N)C(N)=O  IC50 (Hs68; cell viability, CellTiter-Blue; 24 h, serum-free medium): > 100 µM
CC(C)C[C@H](NC(=O)[C@H](CCC(N)=O)NC(=O)[C@@H]1CSSC[C@@H]2NC(=O)[C@H](CC(N)=O)NC(=O)[C@@H](NC(=O)[C@@H](CCCNC(=N)N)NC(=O)[C@@H](CCCNC(=N)N)NC(=O)[C@@H](CCCNC(=N)N)NC(=O)[C@@H](CCCNC(=N)N)NC(=O)[C@@H](CCCNC(=N)N)NC(=O)[C@@H](CCCNC(=N)N)NC(=O)[C@@H](CCCNC(=N)N)NC(=O)[C@@H](CCCNC(=N)N)NC(=O)[C@H](N)CCCNC(=N)N)CSSC[C@H](NC(=O)[C@H](Cc3ccccc3)NC(=O)[C@H](C)NC(=O)[C@H]([C@@H](C)O)NC(=O)[C@H](CCC(=O)O)NC(=O)[C@@H]3CCCN3C(=O)[C@H](C)NC(=O)[C@H](CCCCN)NC2=O)C(=O)N[C@@H](C)C(=O)N[C@@H](Cc2ccc(O)cc2)C(=O)N[C@@H](Cc2c[nH]c3ccccc23)C(=O)N1)C(N)=O  IC50 (HCT-116 p53+/+; cytotoxicity): ~6 µM
CC(=O)O[C@H]1C[C@H](O[C@H]2[C@@H](O)C[C@H](O[C@H]3[C@@H](O)C[C@H](O[C@H]4CC[C@@]5(C)[C@H](CC[C@@H]6[C@@H]5CC[C@]5(C)[C@@H](C7=CC(=O)OC7)[C@@H](O)C[C@]65O)C4)O[C@@H]3C)O[C@@H]2C)O[C@H](C)[C@H]1O[C@@H]1O[C@H](CO)[C@@H](O)[C@H](O)[C@H]1O  IC50 (BEAS-2B; cell growth or viability, MTT; 48 h): 0.92 µM
CC[C@@H]1NC(=O)[C@H](CCCNC(=N)N)NC(=O)[C@H](NC(=O)C(C)C)CCNC(=O)c2cc(F)c(c(F)c2)/N=N/c2c(F)cc(cc2F)C(=O)NCCNC(=O)[C@@H](Cc2ccccc2)NC1=O  IC50 (MOLM-13; cell viability; 2 days, pep-1 transfection): > 150 µM
Cc1cc(C)c(N2CCN(c3c(C)cc(C)cc3C)C2=[Se])c(C)c1.[Cl][Ag]  IC50 (H157 lung carcinoma cells; cell viability, MTT; 72 h): 1 ± 0.2 µM
F[P-](F)(F)(F)(F)F.OCP(CO)CO.OCP(CO)CO.OCP(CO)CO.OCP(CO)CO.[Cu+]  IC50 (HFF-1; cell growth or viability, MTT; 72 h): 31 µM
C[C@@H](N)[C@H](O)CCCCCCCC(=O)CCCCCCCCCCCCCC[C@@H](O[C@@H]1O[C@H](CO)[C@@H](O)[C@H](O)[C@H]1O)[C@@H](N)CO  IC50 (MCF-12A; cell growth or viability, resazurin; 96 h): 19.8 µM
CC(C)C[C@H](NC(=O)[C@H](CC(C)C)NC(=O)[C@H](CCC(=O)O)NC(=O)[C@H](CCC(=O)O)NC(=O)[C@H](CC(C)C)NC(=O)[C@H](Cc1c[nH]cn1)NC(=O)[C@H](Cc1c[nH]cn1)NC(=O)[C@H](CC(C)C)NC(=O)[C@H](CC(C)C)NC(=O)[C@H](CCC(=O)O)NC(=O)[C@H](CCC(=O)O)NC(=O)[C@@H](N)CC(C)C)C(=O)N[C@@H](Cc1c[nH]cn1)C(=O)N[C@@H](Cc1c[nH]cn1)C(N)=O  IC50 (4T1; cell growth or viability, MTT; pH 7.4): > 100 µM
COc1ccc(/C=C/C(=O)CC(=O)/C=C/c2ccc(OC)c(OC)c2)cc1OC  IC50 (human Glioma cell; cell growth or viability, MTS; 24 h): 16.8 µM
CCCCCCN(CCCCCC)C1=[S+][Au-]2([S]1)[c]1ccccc1-c1cccc[c]12  IC50 (UWB1289; cell growth or viability, MTT; 72 h): > 100 µM
COC(=O)C1CN1S(=O)(=O)c1ccc(N)cc1 (stereo not shown)  IC50 (HT-1080; cell growth or viability, MTT; 48 h): 200 µM
CC(C)C[C@H](NC(=O)[C@H](CCCCN)NC(=O)[C@H](CC(C)C)NC(=O)[C@H](CC(C)C)NC(=O)[C@H](CCCCN)NC(=O)[C@H](CCCCN)NC(=O)[C@H](CC(C)C)NC(=O)[C@H](CC(C)C)NC(=O)[C@H](CCCCN)NC(=O)[C@H](CC(C)C)NC(=O)[C@H](CC(C)C)NC(=O)[C@H](CCCCN)NC(=O)[C@H](CCCCN)NC(=O)[C@H](CC(C)C)NC(=O)[C@@H](N)CSSC[C@H](N)C(=O)N[C@@H](CC(C)C)C(=O)N[C@@H](CCC(=O)O)C(=O)N[C@@H](CCC(=O)O)C(=O)N[C@@H](CC(C)C)C(=O)N[C@@H](CC(C)C)C(=O)N[C@@H](Cc1c[nH]cn1)C(=O)N[C@@H](Cc1c[nH]cn1)C(=O)N[C@@H](CC(C)C)C(=O)N[C@@H](CCC(=O)O)C(=O)N[C@@H](CCC(=O)O)C(=O)N[C@@H](CC(C)C)C(=O)N[C@@H](CC(C)C)C(=O)N[C@@H](Cc1c[nH]cn1)C(=O)N[C@@H](Cc1c[nH]cn1)C(N)=O)C(N)=O  IC50 (4T1; cell growth or viability, MTT; pH 7.4): > 100 µM
N=C(N)NCCC[C@H](NC(=O)[C@@H]1CSSC[C@H](NC(=O)[C@H](Cc2ccc3ccccc3c2)NC(=O)[C@H](CCCNC(=N)N)NC(=O)[C@H](CCCNC(=N)N)NC(=O)c2ccc(F)cc2)C(=O)N[C@@H](Cc2ccc(O)cc2)C(=O)N[C@@H](CCCNC(N)=O)C(=O)N[C@@H](CCCCNC(=O)CN2CCN(CC(=O)O)CCN(CC(=O)O)CCN(CC(=O)O)CC2)C(=O)N[C@H](CCCCNC(=O)CN2CCN(CC(=O)O)CCN(CC(=O)O)CCN(CC(=O)O)CC2)C(=O)N2CCC[C@H]2C(=O)N[C@@H](Cc2ccc(O)cc2)C(=O)N[C@@H](CCCNC(=N)N)C(=O)N[C@@H](CCCNC(N)=O)C(=O)N1)C(N)=O [copper-64 labelled]  IC50 (mouse red blood cells; binding, homologous displacement; 45 min, room temperature): 0.0684 µM
COc1cccc2c1C(=O)c1c(O)c3c(c(O)c1C2=O)C[C@@](O)(C(=O)CO)C[C@@H]3O[C@H]1C[C@H](NC(=O)CCN2C(=O)CC(SC[C@H](N)C(=O)N3CCC[C@H]3C(=O)N[C@@H](CCCCN)C(=O)N[C@@H](CCCCN)C(=O)N[C@@H](CCCCN)C(=O)N[C@@H](CCCNC(=N)N)C(=O)N[C@@H](CCCCN)C(=O)N[C@H](C(N)=O)C(C)C)C2=O)[C@H](O)[C@H](C)O1 (stereo partly shown)  IC50 (MCF7, doxorubicin-sensitive; cytotoxicity, CCK-8; 96 h): 1.21 ± 0.25 µM

Repeated from above:
CCCCCCN(CCCCCC)C1=[S+][Au-]2([S]1)[c]1ccccc1-c1cccc[c]12  IC50 (UWB1289; cell growth or viability, MTT; 72 h): > 100 µM
C[C@H]1C(OCCCCC[P+](c2ccccc2)(c2ccccc2)c2ccccc2)O[C@@H]2O[C@@]3(C)CCC4[C@H](C)CCC1[C@]42OO3 (stereo partly shown)  IC50 (T24; cell growth or viability, MTT; 72 h): 0.348 µM
